Assay results pooled from the literature.
Protocols differ between the studies behind these lines.
Cell line: HEK293

Structure (SMILES) | assay | conditions | measurement | result
O=[C]=[Mn-2]12(=[C]=O)(=[C]=O)[O]c3cc4c(cc3=[N+]1CCc1ccccc1)[O][Mn-2](=[C]=O)(=[C]=O)(=[C]=O)([N+]=4CCc1ccccc1)[n+]1ccc(cc1)C(=O)OCCOC(=O)c1cc[n+]2cc1 | MTT | 50 µM, 48 h, photolysed compound | viability reduction | 35%
CC(C)C[C@H](NC(=O)[C@H](Cc1ccc(O)cc1)NC(=O)[C@@H]1CCCN1C(=O)[C@H](CCCNC(=N)N)NC(=O)[C@@H]1CCCN1C(=O)[C@H](CCCCN)NC(=O)[C@H](CC(=O)O)NC(=O)[C@@H]1CCCN1C(=O)[C@H](CCCNC(=N)N)NC(=O)C1(N)CCCCC1)C(=O)N1CCC[C@H]1C(=O)N[C@@H](CCCNC(=N)N)C(=O)N1CCC[C@H]1C(=O)N[C@@H](CCCNC(=N)N)C(=O)N1CCC[C@H]1C(=O)N1CCC[C@H]1C(=O)N[C@@H](CCCNC(=N)N)C(=O)N1CCC[C@H]1C(=O)N[C@H](C(=O)N[C@@H](CCCNC(=N)N)C(=O)N[C@@H](CSCc1ccccc1CSC[C@H](NC(=O)[C@H](CCCNC(=N)N)NC(=O)[C@@H](NC(=O)[C@@H]1CCCN1C(=O)[C@H](CCCNC(=N)N)NC(=O)[C@@H]1CCCN1C(=O)[C@@H]1CCCN1C(=O)[C@H](CCCNC(=N)N)NC(=O)[C@@H]1CCCN1C(=O)[C@H](CCCNC(=N)N)NC(=O)[C@@H]1CCCN1C(=O)[C@H](CC(C)C)NC(=O)[C@H](Cc1ccc(O)cc1)NC(=O)[C@@H]1CCCN1C(=O)[C@H](CCCNC(=N)N)NC(=O)[C@@H]1CCCN1C(=O)[C@H](CCCCN)NC(=O)[C@H](CC(=O)O)NC(=O)[C@@H]1CCCN1C(=O)[C@H](CCCNC(=N)N)NC(=O)C1(N)CCCCC1)C(C)C)C(=O)NN)C(=O)NN)C(C)C | cytotoxicity | highest tested 125 µg/mL | IC50 | > 125 µg/mL
Cc1ccc(C(C)C)cc1.Cc1ccc(C(C)C)cc1.Cc1ccc(C(C)C)cc1.Cc1ccc(C(C)C)cc1.O=S(=O)(O)C(F)(F)F.O=S(=O)(O)C(F)(F)F.O=S(=O)(O)C(F)(F)F.O=S(=O)(O)C(F)(F)F.c1ccc2c3c4ccccc4c(c2c1)-c1cn(nn1)-c1cc[n+](cc1)[Ru-]1[O]c2cc4c(cc2=[O+]1)[O][Ru-]([O+]=4)[n+]1ccc(cc1)-n1cc(nn1)-c1c2ccccc2c(c2ccccc12)-c1cn(nn1)-c1cc[n+](cc1)[Ru-]1[O]c2cc4c(cc2=[O+]1)[O][Ru-]([O+]=4)[n+]1ccc(cc1)-n1cc-3nn1 | cell growth or viability, MTT | 24 h | IC50 | > 40 µM
CCCC[N+]1=c2cc3c4cc2[O][Mn-2]1(=[C]=O)(=[C]=O)(=[C]=O)[n+]1ccc(cc1)C(=O)NCCNC(=O)c1cc[n+](cc1)[Mn-2](=[C]=O)(=[C]=O)(=[C]=O)([O]3)[N+]=4CCCC | MTT | 50 µM, 48 h, photolysed compound | viability reduction | 47%
CC(=O)OC[C@H]1O[C@@H](n2cc(CSc3nc4ccccc4n3Cc3cn([C@@H]4O[C@H](COC(C)=O)[C@@H](OC(C)=O)C(OC(C)=O)[C@H]4OC(C)=O)nn3)nn2)[C@H](OC(C)=O)C(OC(C)=O)[C@@H]1OC(C)=O (stereo in doubt) | MTT | 500 ppm | cytotoxicity | 90.9%
CC(C)OC(=O)[C@H](CO)NCc1cc(Cl)c(OCc2cccc(-c3ccccc3)c2Br)cc1OCc1cccnc1 | MTT |  | IC50 | > 10 µM
CC(C)C[C@H](NC(=O)[C@H](Cc1ccc(O)cc1)NC(=O)[C@@H]1CCCN1C(=O)[C@H](CCCNC(=N)N)NC(=O)[C@@H]1CCCN1C(=O)[C@H](CCCCN)NC(=O)[C@H](CC(=O)O)NC(=O)[C@@H]1CCCN1C(=O)[C@H](CCCNC(=N)N)NC(=O)C1(N)CCCCC1)C(=O)N1CCC[C@H]1C(=O)N[C@@H](CCCNC(=N)N)C(=O)N1CCC[C@H]1C(=O)N[C@@H](CCCNC(=N)N)C(=O)N1CCC[C@H]1C(=O)N1CCC[C@H]1C(=O)N[C@@H](CCCNC(=N)N)C(=O)N1CCC[C@H]1C(=O)N[C@H](C(=O)N[C@@H](CCCNC(=N)N)C(=O)N[C@@H](CSc1c(F)c(F)c(SC[C@H](NC(=O)[C@H](CCCNC(=N)N)NC(=O)[C@@H](NC(=O)[C@@H]2CCCN2C(=O)[C@H](CCCNC(=N)N)NC(=O)[C@@H]2CCCN2C(=O)[C@@H]2CCCN2C(=O)[C@H](CCCNC(=N)N)NC(=O)[C@@H]2CCCN2C(=O)[C@H](CCCNC(=N)N)NC(=O)[C@@H]2CCCN2C(=O)[C@H](CC(C)C)NC(=O)[C@H](Cc2ccc(O)cc2)NC(=O)[C@@H]2CCCN2C(=O)[C@H](CCCNC(=N)N)NC(=O)[C@@H]2CCCN2C(=O)[C@H](CCCCN)NC(=O)[C@H](CC(=O)O)NC(=O)[C@@H]2CCCN2C(=O)[C@H](CCCNC(=N)N)NC(=O)C2(N)CCCCC2)C(C)C)C(=O)NN)c(F)c1F)C(=O)NN)C(C)C | cytotoxicity | highest tested 125 µg/mL | IC50 | > 125 µg/mL
CN1C(=O)[C@@H]2NC(=O)[C@@H]3NC(=O)[C@@H](c4ccc(O)cc4)NC(=O)[C@H](NC(=O)C(NCc4cccc(O)c4)c4ccc(O)cc4)Cc4c[nH]c5cc(ccc45)-c4cc3cc(c4O)Oc3ccc(cc3)C[C@H]1C(=O)N[C@@H](C(=O)O)c1ccc(O)c(c1)Oc1ccc2cc1 (stereo partly shown) | cell viability, CellTiter-Glo | 48 h, 1% DMSO | IC50 | unstable
CCCC[N+]1=c2cc3c4cc2[O][Mn-2]1(=[C]=O)(=[C]=O)(=[C]=O)[n+]1ccc(cc1)C(=O)Oc1ccccc1OC(=O)c1cc[n+](cc1)[Mn-2](=[C]=O)(=[C]=O)(=[C]=O)([O]3)[N+]=4CCCC | cell growth, MTT | 48 h, LED photolysed 1 h | IC50 | > 50 µM
CCCCN1C(=O)c2cccc3c(NCCCCCCCCCCN4CCOCC4)ccc(c23)C1=O | confocal lambda scanning |  | emission maximum in ER | 536 nm
